Experimental data pooled from the literature.
Numbered parts are unrelated; each lists some results of a single study. Positions count from the first letter of the parent shown.

Study 1
Target: Sal-like protein 4, full length isoform B (SALL4, Homo sapiens, UniProt Q9UJQ4-2, residues 1-616)
Method: universal PBM
Molecule type: double-stranded DNA, one strand shown
Matrix: in vitro
Tested at: not given
Notes: 8-mer, flanks averaged, mean of replicates
Reading: higher = stronger binding
Quantity: E-score
CGTTAGGC: -0.156
TCCAAAAA: 0.26
GGAGCCCC: -0.413
CTCCCTCA: -0.2
AAATTGGC: 0.0706
ATAAGTAA: 0.366
CGACAGCC: -0.175
GATGGTCC: -0.106
CACGGTTA: 0.139
CCGGTTGC: -0.283
GTAGCTCA: -0.0699
CGGTACAC: -0.25
CTAAACCA: 0.0783

Study 2
Target: CCNA2, cyclin fold, Cln2 fusion (human)
Method: yeast growth competition, sequencing
Matrix: yeast
Notes: strong parent motif
Baseline: not given
Reading: higher = stronger binding
Quantity: normalised enrichment score
Starting sequence: E2F1 docking peptide (human); PPVKRRLDLETDH; partner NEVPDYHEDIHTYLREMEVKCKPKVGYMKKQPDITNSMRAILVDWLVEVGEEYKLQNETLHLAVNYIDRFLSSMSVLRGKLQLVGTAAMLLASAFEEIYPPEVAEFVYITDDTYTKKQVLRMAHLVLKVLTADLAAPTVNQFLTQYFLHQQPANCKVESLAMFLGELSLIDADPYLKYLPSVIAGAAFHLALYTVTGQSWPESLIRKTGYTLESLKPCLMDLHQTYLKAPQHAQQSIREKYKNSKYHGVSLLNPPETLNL
D12W: 4.23
K4G: 1.04
V3Y: 0.67
L7D: 0.42
D12Y: 5.93
P1R: 4.86
L7E: -0.295
L7K: 0.0688
E10W: 5.15
D8T: 4.26
H13Y: 5
R5V: -0.162
P2S: 3.99
K4D: 0.4
T11R: 3.54
D12H: 3.91
L7V: 0.236
V3W: 1.39

Study 3
Target: Histone acetyltransferase KAT6A, both winged helices, GST fusion (KAT6A, Homo sapiens, UniProt Q92794, residues 1-181)
Method: protein binding microarray
Molecule type: double-stranded DNA, one strand shown
Matrix: in vitro
Tested at: not given
Notes: 8-mer, flanks averaged, mean of 2 arrays, mostly near background
Baseline: not given
Reading: higher = stronger binding
Quantity: E-score
Residues (chain): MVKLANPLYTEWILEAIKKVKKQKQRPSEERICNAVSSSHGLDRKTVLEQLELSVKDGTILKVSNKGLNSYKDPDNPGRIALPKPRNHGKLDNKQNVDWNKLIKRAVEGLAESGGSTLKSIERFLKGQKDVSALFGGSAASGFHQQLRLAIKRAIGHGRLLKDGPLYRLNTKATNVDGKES
ATTGTTCG: 0.115
TAGAAGCA: -0.285
CATAGTGC: 0.0141
AAGCGGAT: 0.159
ATACCCTC: -0.0853
CCTTGAAC: -0.0183
GAAGACGC: 0.0992
AAAAACTT: -0.105
ACTTAGAC: -0.0932
GATCTTGA: -0.0457
TCCTTCAA: -0.152
CGTGTCGA: 0.0398
ACAACTCT: -0.271
AGTAGATG: -0.0816
CGGTAGTA: 0.116
AAAGCGGT: 0.211
AGAGGAAC: -0.126
ACGGACAC: 0.208

Study 4
Target: RNA binding protein fox-1 homolog 2, RRM domain, GST-SBP tag (RBFOX2, Homo sapiens, UniProt O43251-10, residues 100-194)
Method: RNA Bind-n-Seq
Molecule type: RNA
Matrix: in vitro
Tested at: 365 nM
Notes: natural RNA segment, single round, ends assumed
Baseline: no-protein control
Reading: higher = stronger binding
Quantity: RBNS enrichment (R)
All sequences stand within: GGGAGUUCUACAGUCCGACGAUC … UGGAAUUCUCGGGUGCCAA
Residues (chain): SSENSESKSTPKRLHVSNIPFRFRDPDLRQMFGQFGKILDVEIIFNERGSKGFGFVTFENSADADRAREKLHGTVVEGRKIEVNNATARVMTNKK
GGCAUCUAGCCAGAGGCUGGAGACAGGUGCGCCCCUGGUGGUCACAGGCUGUGCCUUGGUUUCCUGAGCCACCUUUACUCUGCUCUAUGCCAGGCUGUGCUAGCAACACC: 0.488
UUAUUUUUAUUUGCAAUCUCUAAAAACAAAUUUUAUUUCAAUUACGUCUUACUGAAGAAGUCUUUCCAGCUAGAAAGAUGUUCUGACACUGUCUGAUCGUGAAGCACCUG: 0.404
CUUCAUAUCCUACUUGUUAAUAGCCGUCUUCUCCCUCUGUCAUCUACCCAGAGCAUUCAGCUUGGGACUGUCGUCCAGUGCAGGGCCCAGGUGAGAGGAGACUGCCAGCG: 0.427
UGAAUAUGUUUUAUAUGUUAUGAAGAAAAGAAUUGUUGUAAGUUUUUGAUUCUACUCUUAUAUGCUGGACUGCAUUCACACAUGGCAUGAAAUAAGUCAGGUUCUUUACA: 1.33
GCCAAAAUGAAUGCUGACUCCUGAUACUCCGCACAAGCACACCAACUCCAAAAGUGCCUUAAAGCCAGGUUUGUGUCUCCUUUCAGGAGAGAGCGUGUAACGUCAGAUUU: 0.868
GGGAGAGGCCUCGGCUGUCUCCUGUCCCCGGCGGGGUGCCUGCUGUCCGUCCCGCUUUCAUGUUACUGUUGCAGCUUGUGCUGAGCCUGCCCAGUUGGAGGAGACUGGGC: 1.21
GGGUCCCUGGAAAGGGGGAGAGUUGCCCUUUACAGAAUCACUCGAGCCCUUUCCAGCACUGUUGGUCUGAUGAACAAGGUUGUUUUACCUUAUUUUCUCUUGGAACAUAU: 0.239
UUCUCGUUUUCAUGAUUCUUGUGAUUUUCCUGGUCGUUGUACCCAGGGCAUGGCAAUGGCCUCAUCCUUAAAAUGUUAUUUCUACUCUCACCCUGAGAGACCUGGGCAGC: 0.341
CCCCUUCUGGCCCCCUGCCUGGAGCAUCUGGCAGCCCCACACCUGCCCUUGGGGGUUGCAGGCUGCCCCCUUCCUGCCAGACCGGAGGGGCUGGGGGGAUCCCAGCAGGG: 0.458
AUUUCAUCCUGAUGUUUAGGGGACUUGUCCUGGUUCAUCUUAGUUAAUGUGUUCUUUGCCAAGGUGAUCUAAGUUGCCUACCUUGAAUUUUUUUUUAAAUAUAUUUGAUG: 0.387
GGUAUGAAGUGUGCACACGCAGCCCAACAACGGGCAGUGGUCUCUGUGCUCCUAGGCAUCCAGCACAGGUUCUGGCAGGGCACCCCUGCUGGGGUUGGGGGCUGGUCUGU: 0.457
GUGAGGUGGGUGGAGACUCCUCGGAAGCCCCUGCUUCCAGAAAGCCUGGGAAGAACUGCCCUUCUGCAAAGGGGGGACUGCAUGGUUGCAUUUUCAUCACUGAAAGUCAG: 10.7

Study 5
Target: RING finger protein unkempt homolog, zinc fingers 1-6, GST-SBP tag (UNK, Homo sapiens, UniProt Q9C0B0, residues 30-357)
Method: RNA Bind-n-Seq
Molecule type: RNA
Matrix: in vitro
Tested at: not given
Notes: RNA with constant flanks, human and mouse sites, ends assumed
Baseline: input RNA pool
Reading: higher = stronger binding
Quantity: bound/input enrichment
All sequences stand within: GGGAGUUCUACAGUCCGACGAUC … CAACAGAGGAUUGAGCAUCA
Residues (chain): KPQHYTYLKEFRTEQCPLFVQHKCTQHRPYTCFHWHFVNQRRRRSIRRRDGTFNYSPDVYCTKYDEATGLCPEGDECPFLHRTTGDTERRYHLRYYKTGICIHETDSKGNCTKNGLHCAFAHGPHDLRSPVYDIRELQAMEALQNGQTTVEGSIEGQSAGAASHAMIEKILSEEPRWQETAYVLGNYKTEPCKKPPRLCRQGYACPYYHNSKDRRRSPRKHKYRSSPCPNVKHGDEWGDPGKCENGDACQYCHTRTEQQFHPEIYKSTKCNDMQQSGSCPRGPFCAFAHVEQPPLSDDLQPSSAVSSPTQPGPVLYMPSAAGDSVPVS
GAUGGUGCACAUGCCCCAGAGUUGACCAAAAAAGUUCAGCGACAUGCAUCUAGUGGCUCCUUCCUACCCAGCGCUAAUGAACAUCUUAAAGAAGAUCUCAACCUUCGCUUGAAGAAAUUG: 0.128 ratio
AAUGUUCAUAUUUUGAGUAAAGGAAGCUAAAACCAUGUUUGCUUUCUGGUACUACAUGCAUUAGCGAAAGGUUAAGUAAGUUUUGUUCUCCACUGAAGUAAUACUUAACAUCUCAGAAAA: 0.186 ratio
AAGGGCAGGCUGGCCGCGGCCGGUUUGGUCUGGGGACCACGGGCUGGAGCAGGUGGAAAUUUAAAAUUGUUUACAGUCAACACUGUUUCCAGCCAUGGGUUUGUCUCCAUCUGCUCCUGC: 0.0991 ratio
AGAGCCCAGGAUGUUGAUGCUACAAAUCCAAAUUACGAAAUUAUGUGUAUGAUCAGAGACUUCAGAGGGAGCUUGGAUUACAGACCCCUAACAACAGCAGAUCCUAUUGAUGAACAUAGG: 0.321 ratio
UCGCUGCCCCAGCCGCAGCAGGACGGCGGUGGCGGUGCUAGUAGCGGCGGGGGUGUGACCCCGCUGGUGGAAUACGAGGAUGUGAGCUCCCAGUCCGAGCAGGGGCUGCUGCUGGGGGGG: 0.728 ratio
UCUUUAAAAAAAAAAUUACCUUUUCUGACAGUGCUUUCCCUCCCAUAGAUCCACGUUCAAGCUCAAAGAGCAAAGGCUUUGCACGGAGCUCAAACAUCUGAUGAAGAAAGAUUUCUGAGA: 0.874 ratio
GCUCUGACUGUAUAGAGAGGGGUGUGCACAUAUGUCCCCACCCUCCGGUCUUCCUUUCCUUUUAGGGUGACACUACAGAGUCAUUCAGCCAAAUCCGUCUACUGCCUCUCCUCCUCAGCC: 0.272 ratio

Study 6
Target: ABI1, truncated, D143A, DHFR fusion (Arabidopsis thaliana)
Method: DHFR PCA, deep sequencing
Matrix: yeast
Notes: methotrexate growth selection, single substitutions
Together with: (+)-ABA 17 µM
Baseline: wild-type fitted maximum
Reading: higher = stronger binding
Quantity: relative binding score
Starting sequence: PYL1, truncated, DHFR fusion (Arabidopsis thaliana); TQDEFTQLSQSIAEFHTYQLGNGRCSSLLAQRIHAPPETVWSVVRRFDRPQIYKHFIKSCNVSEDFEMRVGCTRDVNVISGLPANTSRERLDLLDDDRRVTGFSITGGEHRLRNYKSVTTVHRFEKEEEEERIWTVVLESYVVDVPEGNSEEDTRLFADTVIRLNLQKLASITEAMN
A170L: 19.4%
V44P: -6.32%
T6D: 84.9%
K116W: 2.58%
Q19A: 85.1%
D144L: 4.95%
L29D: 0.615%
S42D: 78.4%
S11V: 85.8%
A30G: 72%
I33L: 2.8%
H110G: 10.5%
E125T: 84.6%
